Measurements gathered from unrelated publications.
Every numbered part comes from another study and shows a few of its results, in no order.

Study 1
Target: Histone acetyltransferase KAT6A, winged helix 2, GST fusion (KAT6A, Homo sapiens, UniProt Q92794, residues 85-181)
Method: protein binding microarray
Molecule type: double-stranded DNA, one strand shown
Sample: in vitro
Concentration: not given
Setting: 8-mer, flanks averaged, mean of 2 arrays, mostly near background
Reference: not given
Direction: higher = stronger binding
Target sequence (chain): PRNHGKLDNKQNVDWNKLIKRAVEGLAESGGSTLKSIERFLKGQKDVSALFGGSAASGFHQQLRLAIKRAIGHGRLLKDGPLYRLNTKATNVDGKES
Sequence	E-score
AATTGCGG	0.0927
ACAAGCGA	-0.00846
GGCATCGA	0.127
CACGCGAC	0.0101
ATTGCGCA	0.0757

Study 2
Target: Phosphate system positive regulatory protein PHO4, full length, GST-tagged (PHO4, Saccharomyces cerevisiae, UniProt P07270, residues 1-312)
UniProt P07270, sequence (whole entry, looked up): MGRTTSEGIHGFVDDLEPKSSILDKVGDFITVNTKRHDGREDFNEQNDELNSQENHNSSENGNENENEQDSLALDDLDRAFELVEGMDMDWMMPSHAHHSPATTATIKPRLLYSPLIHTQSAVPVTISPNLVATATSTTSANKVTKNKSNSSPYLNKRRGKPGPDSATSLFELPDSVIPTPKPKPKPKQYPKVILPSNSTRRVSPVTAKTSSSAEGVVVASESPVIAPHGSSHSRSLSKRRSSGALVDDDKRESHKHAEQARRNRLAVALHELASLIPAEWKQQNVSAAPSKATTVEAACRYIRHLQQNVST
Method: competition protein-binding microarray
Molecule type: double-stranded DNA, one strand shown
Sample: in vitro
Concentration: 2 µM
Setting: whole 60-bp probe, lowest competitor level
With: Cbf1 competitor, 0.05 µM
Direction: higher = stronger binding
Sequence	fluorescence intensity [a.u.]
CTCTTTTCGCGGAGCCGCATGCAAGGCTACATTAAAGTCTTGATTCGCTTGACGCTGCTG	8170
GAACAATGGAATAAGCTCGTGAGATTCCTTAACTTTGTCTTGATTCGCTTGACGCTGCTG	5860
GCTTAACCGAATCCACACGGGTCTGCCATCTTCCATGTCTTGATTCGCTTGACGCTGCTG	7910
GTCTTGTCTCATTCACACGTGTTTTTCCCCACTTCAGTCTTGATTCGCTTGACGCTGCTG	16700

Study 3
Target: Sal-like protein 4, full length isoform A (SALL4, Homo sapiens, UniProt Q9UJQ4, residues 1-1053)
UniProt Q9UJQ4, sequence (whole entry, looked up): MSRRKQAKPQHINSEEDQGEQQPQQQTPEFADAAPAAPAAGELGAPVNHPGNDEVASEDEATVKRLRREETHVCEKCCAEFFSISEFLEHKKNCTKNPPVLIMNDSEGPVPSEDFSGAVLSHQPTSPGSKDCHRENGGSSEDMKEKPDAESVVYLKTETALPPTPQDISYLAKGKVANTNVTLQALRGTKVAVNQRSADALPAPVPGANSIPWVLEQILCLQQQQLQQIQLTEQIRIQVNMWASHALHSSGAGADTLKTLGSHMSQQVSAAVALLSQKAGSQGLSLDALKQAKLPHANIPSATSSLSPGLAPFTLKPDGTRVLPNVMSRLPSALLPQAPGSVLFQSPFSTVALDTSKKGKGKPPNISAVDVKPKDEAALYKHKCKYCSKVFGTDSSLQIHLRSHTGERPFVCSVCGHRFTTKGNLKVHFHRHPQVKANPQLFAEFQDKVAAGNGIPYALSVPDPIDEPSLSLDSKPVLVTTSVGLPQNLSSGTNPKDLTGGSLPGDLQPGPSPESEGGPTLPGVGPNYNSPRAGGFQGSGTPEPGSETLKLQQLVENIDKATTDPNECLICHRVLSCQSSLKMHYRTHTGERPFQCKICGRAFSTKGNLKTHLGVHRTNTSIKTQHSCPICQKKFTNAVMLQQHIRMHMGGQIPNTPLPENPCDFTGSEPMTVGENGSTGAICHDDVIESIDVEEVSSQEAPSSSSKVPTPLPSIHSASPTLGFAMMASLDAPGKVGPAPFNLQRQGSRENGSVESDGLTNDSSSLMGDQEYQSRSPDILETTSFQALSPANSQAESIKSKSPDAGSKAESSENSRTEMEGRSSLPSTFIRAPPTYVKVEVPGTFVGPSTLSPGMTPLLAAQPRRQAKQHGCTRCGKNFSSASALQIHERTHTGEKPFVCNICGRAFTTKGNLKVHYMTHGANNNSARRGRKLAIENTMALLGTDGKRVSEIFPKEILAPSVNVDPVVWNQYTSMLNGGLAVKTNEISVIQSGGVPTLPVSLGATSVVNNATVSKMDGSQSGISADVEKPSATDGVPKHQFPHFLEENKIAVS
Method: universal PBM
Molecule type: double-stranded DNA, one strand shown
Sample: in vitro
Concentration: 600 nM
Setting: 8-mer, flanks averaged, mean of replicates
Direction: higher = stronger binding
Sequence	E-score
CTAACACC	-0.0928
ATACTATG	0.254
GTACTCAA	0.0931
CTTGTTGC	0.051

Mixed results
Molecule	target	assay	test system	conditions	scale	quantity	result
PhoQ, residues 284 288 289 292 302 303 SCKMEA	PhoP, residues 12 14 15 18 19 HLGGL (Escherichia coli, UniProt P23836)	Sort-seq, refers to: YFP reporter	E. coli	PhoQ-PhoP variant library, with: 10 µM Mg2+	reference: high Mg2+ state, higher = stronger signaling	fold induction	11.5

For quick reference, copied from above (study 1):
Sequence	E-score
ACAAGCGA	-0.00846
GGCATCGA	0.127
